Results collected from several papers.
Every numbered part comes from another study and shows a few of its results, in no order. Substitutions count along the parent as printed.

Sample 1
Target: CCNE1, cyclin fold, Cln2 fusion (human)
Method: yeast growth competition, sequencing
Matrix: yeast
Notes: strong parent motif
Baseline: not given
Reading: higher = stronger binding
Starting sequence: REPIN1 docking peptide (human); QSFRGWVALVLHL
| Substitution | normalised enrichment score |
| --- | --- |
| QSFRAWVALVLHL [G5A] | 1.52 |
| QSFRGWVALVLHA [L13A] | 1.08 |
| QSFRGWAALVLHL [V7A] | 1.81 |
| ASFRGWVALVLHL [Q1A] | 1.14 |
| QSFRGAVALVLHL [W6A] | 0.535 |
| QSARGWVALVLHL [F3A] | 1.05 |

Sample 2
Target: ABI1, truncated, D143A, DHFR fusion (Arabidopsis thaliana)
Method: DHFR PCA, deep sequencing
Matrix: yeast
Notes: methotrexate growth selection, single substitutions
Added: (+)-ABA 200 µM
Baseline: wild-type fitted maximum
Reading: higher = stronger binding
Starting sequence: PYL1, truncated, DHFR fusion (Arabidopsis thaliana); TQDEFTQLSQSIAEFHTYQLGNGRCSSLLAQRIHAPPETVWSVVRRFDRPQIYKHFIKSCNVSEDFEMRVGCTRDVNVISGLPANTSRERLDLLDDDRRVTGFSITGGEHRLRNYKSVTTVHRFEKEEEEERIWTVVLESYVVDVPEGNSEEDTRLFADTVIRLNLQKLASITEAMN; partner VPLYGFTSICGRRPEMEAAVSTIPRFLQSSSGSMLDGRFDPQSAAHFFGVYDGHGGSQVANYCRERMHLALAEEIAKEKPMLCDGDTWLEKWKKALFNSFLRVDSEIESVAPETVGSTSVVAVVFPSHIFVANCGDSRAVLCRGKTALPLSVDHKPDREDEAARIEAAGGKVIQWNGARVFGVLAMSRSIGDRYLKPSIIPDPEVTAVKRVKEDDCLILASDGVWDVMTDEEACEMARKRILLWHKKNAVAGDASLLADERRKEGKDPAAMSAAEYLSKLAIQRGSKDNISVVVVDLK
| Substitution | relative binding score |
| --- | --- |
| G23M | 88.5% |
| A84M | 17% |
| E139M | 85.3% |
| S59C | 99.5% |
| V137S | -5.96% |
| K116N | 80.8% |
| Q167R | 104% |
| N77E | 105% |
| R88M | 96.3% |
| S140M | 5.26% |
| S171N | 99.9% |
| R32Y | 93.5% |
| N165C | 8.39% |
| D75S | 102% |
| P36Q | 87.7% |
| G107K | 66.4% |

Sample 3
Target: Ras GTPase-activating protein-binding protein 1, RRM domain (G3BP1, Homo sapiens, UniProt Q13283)
Sequence of UniProt Q13283 (whole entry, looked up): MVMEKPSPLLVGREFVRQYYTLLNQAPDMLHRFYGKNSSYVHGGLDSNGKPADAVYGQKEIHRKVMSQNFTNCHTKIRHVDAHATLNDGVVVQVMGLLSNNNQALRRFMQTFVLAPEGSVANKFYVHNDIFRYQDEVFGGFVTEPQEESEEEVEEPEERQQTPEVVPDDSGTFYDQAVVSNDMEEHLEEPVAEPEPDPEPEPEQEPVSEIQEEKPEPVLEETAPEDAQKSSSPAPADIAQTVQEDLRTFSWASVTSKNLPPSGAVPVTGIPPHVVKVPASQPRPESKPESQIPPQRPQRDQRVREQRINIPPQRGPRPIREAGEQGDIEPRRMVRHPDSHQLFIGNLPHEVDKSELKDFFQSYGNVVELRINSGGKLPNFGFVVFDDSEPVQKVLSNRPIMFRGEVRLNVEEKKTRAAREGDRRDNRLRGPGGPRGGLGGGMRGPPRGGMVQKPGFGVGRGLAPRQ
Method: RNA Bind-n-Seq
Form: RNA
Matrix: in vitro
Concentration: 1 µM
Notes: whole 134-nt RNA, ends assumed
Added: 150 mM KCl
Baseline: input library
Reading: higher = stronger binding
Shared flanks, not repeated: GGGAGUUCUACAGUCCGACGAUC … UGGAAUUCUCGGGUGUCAAGG
| Strand | log2 enrichment |
| --- | --- |
| UCCUGUGCUACACAUCGUAUGUACCGAAUCGGGGUUUUUGGGGUUUUUUUGGGGUGGGGAAAGUAUUAUGUUACGCCGUUCGGAUCUGCA | 0.584 |
| ACCAUGCAGGUGGGCAUCUUUGGGAAGUGGGGCAAGGGGGGGAUAGGGAGGGGGGUAACACUUUGGGAACAGGUGGUCCCAGAAAGUUUC | -0.531 |
| UGGCCCUGGUGGCAUGCGGGGAGGAAGAGGUGGCCUCAUGGAUCGUGGUGGUCCCGGUGGAAUGUUCAUAGGUGGCCGUGGUGGAGACAG | 1.68 |
| ACCAUGCAGGUGGGCAUCUUUGGGAAGGGGGGCAAGGGGGGGAUAGGGAGGGGGGUAACACUUUGGGAACAGGUGGUCCCAGGUCGUUUC | -0.543 |
| AAGUCCUGUGCUACACAUCGUAUGUACCGAAUCGGUUUGGUUUUUGGAAAAAAAGGAAAGUAUUAUGUUACGCCGUUCGGAUCUGCACUU | -0.136 |
| UGUUGUCUGGGUUUGGGGGUCGAGUAGAUGCGGGGCAGCCGGAGCUGUUGACGGAAAGGAGUAGCCCCAAAGGAGGGCAUGUGAAGUCGC | -0.201 |
| CCUCAAGUCCUGUGCUACACAUCGUAUGUACCGAAUCGGGGAGGGAGGAGGGGAAAGUAUUAUGUUACGCCGUUCGGAUCUGCACUUCCA | 0.177 |
| UCAAGUCCUGUGCUACACAUCGUAUGUACCGAAUCGGGGUUGGGGUUGGGGUUGGAAAGUAUUAUGUUACGCCGUUCGGAUCUGCACUUC | -0.115 |
| CAAGUCCUGUGCUACACAUCGUAUGUACCGAAUCGGGCCCGGGGCCCGGCCCGGGAAAGUAUUAUGUUACGCCGUUCGGAUCUGCACUUC | -0.644 |

Sample 4
Target: PABPC1L2, full length, GST fusion (mouse, UniProt A0ABA7IW68)
Method: RNAcompete
Form: RNA
Matrix: in vitro
Concentration: 20 nM
Notes: 7-mer, probes averaged, single round
Baseline: mean of 7-mers
Reading: higher = stronger binding
Target sequence (chain): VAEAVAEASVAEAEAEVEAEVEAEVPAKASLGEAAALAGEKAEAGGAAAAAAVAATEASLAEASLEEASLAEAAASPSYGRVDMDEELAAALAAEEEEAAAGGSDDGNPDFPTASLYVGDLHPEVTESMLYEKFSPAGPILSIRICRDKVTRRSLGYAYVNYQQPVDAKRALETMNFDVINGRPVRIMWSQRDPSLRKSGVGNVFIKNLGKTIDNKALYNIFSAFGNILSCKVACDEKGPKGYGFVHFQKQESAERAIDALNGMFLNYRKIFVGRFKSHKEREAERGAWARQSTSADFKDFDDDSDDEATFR
| Strand | 7-mer Z-score |
| --- | --- |
| ACACUAG | -0.00108 |
| CUACGCU | -0.267 |
| UGUAACU | -0.258 |
| CAGUCUG | -0.199 |
| GCCGGCU | -0.219 |
| CGGAGGU | 0.111 |
| UAACCAA | 0.215 |
| UUUCCAU | -0.307 |
| UGUGAGA | -0.188 |
| UGCUAGG | 0.113 |
| UCAUGGU | -0.151 |
| AUCUCUC | -0.313 |
| GGCCGCU | -0.235 |
| GCUCCAU | -0.166 |
| GCGCGGA | 0.0315 |
| AGCACGG | 0.066 |
| GACCAGA | 0.0642 |
| CCCACGC | -0.393 |
| GUCGGGG | -0.0518 |
| AAUUGGA | 0.401 |
| GGGCCAA | 0.39 |

For quick reference, copied from above (sample 4):
| Strand | 7-mer Z-score |
| --- | --- |
| UAACCAA | 0.215 |
| GCCGGCU | -0.219 |
| GGCCGCU | -0.235 |
| AGCACGG | 0.066 |
| ACACUAG | -0.00108 |
| GACCAGA | 0.0642 |
| UGUGAGA | -0.188 |
| GGGCCAA | 0.39 |
